Assay results pooled from the literature.
Every numbered part comes from another study and shows a few of its results, in no order.

Study 1
Target: Centromere-binding protein 1, full length, N-terminal tag (CBF1, Saccharomyces cerevisiae, UniProt P17106, residues 1-351)
Sequence of UniProt P17106 (whole entry, looked up): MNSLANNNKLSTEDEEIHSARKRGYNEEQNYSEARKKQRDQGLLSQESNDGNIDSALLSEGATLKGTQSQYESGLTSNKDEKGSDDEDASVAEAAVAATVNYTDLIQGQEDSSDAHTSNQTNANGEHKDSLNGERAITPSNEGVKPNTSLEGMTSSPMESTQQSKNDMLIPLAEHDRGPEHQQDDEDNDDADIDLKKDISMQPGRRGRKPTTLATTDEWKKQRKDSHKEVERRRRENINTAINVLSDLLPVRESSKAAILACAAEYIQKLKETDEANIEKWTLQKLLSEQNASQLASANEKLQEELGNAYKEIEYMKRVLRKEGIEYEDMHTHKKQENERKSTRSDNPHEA
Method: protein-binding microarray
Form: double-stranded DNA, one strand shown
Matrix: in vitro
Tested at: 0.8 µM
Notes: whole 60-bp probe, no competitor
Direction: higher = stronger binding
Shared flanks, not repeated: … GTCTTGATTCGCTTGACGCTGCTG
Sequence	fluorescence intensity [a.u.]
CTATTGTTGTTATCGCTGATGGCGCTCCTCCATTTC	541
CTAATAATGAATGAAAACGTGTAAAACAGATAATTC	581
TGTACGAAGCTATGACGTGTGTGTATAGTAGTTAGG	545
CTATCAGCGTTTTCATGTGAGATTTGCTTTATTTTC	545
GAATCGATAGAATGTGACGTTAGTTGTGGTACTTAG	579
CTAAAATATATTGATCACGTGAAATTAGTGGCATTC	17000
CTATTACTTCTATATCACGAGATGAGCATACGGTTC	1780
GAATGTTTTTCTTCGCACATGGCTGGTTCTGCTTAG	713
CTATTCATTAATCGCCACCTGATGTTTTTCGCTTTC	829
GAATTAAAGACTCACCACGTTCAACTTTGAATTTAG	547
GAACGTCCAAATATGCAGGTGTTTGGGTGCTATTAG	551
CTAATATCAATATGACATGTGATCTCACTCCGCTTC	3210
GAAGATTTACAGAAAGCGCTGATGTTCACTGGGTAG	519
CTATAGATCACTTTGCACGCGGGCATTGAATGATTC	620
GAAAGAAAAGGAGATGATGTTACACCCAATCACTAG	487
CTATACATATACTGTCACGCGACATTTTCACCTTTC	3060
TGTACGAAGCTATGTGACGTTGATATAGTAGTTAGG	546
CTATCGACAGCTTCACGTGCCATTTGCCATTTTTTC	2960
GAAGATCCTTCTTACCGCGTGCTGGGTGAAAAGTAG	635
GAAACGAAAGTATATAGCACCACGAGTGAGTTATAG	592
CTAAATAACTGCCAAAACGTGGTTCTCGCACGCTTC	567
CCTAACTACTATAACGTGCCCGTATAGCTTCGTACA	733
GAACTAATGTGAGTTCACGTTATAGAAGCTGGATAG	769
GAAACCAAATGCAATTCAGTCACGTTCCACACATAG	2850
GAAAGCGTCAAGAATAACGTGCATTTAATTTTTTAG	702

Study 2
Target: RNA binding protein fox-1 homolog 2, RRM domain, GST-SBP tag (RBFOX2, Homo sapiens, UniProt O43251-10, residues 100-194)
Method: RNA Bind-n-Seq
Form: RNA
Matrix: in vitro
Tested at: 365 nM
Notes: natural RNA segment, single round, ends assumed
Reference: no-protein control
Direction: higher = stronger binding
Shared flanks, not repeated: GGGAGUUCUACAGUCCGACGAUC … UGGAAUUCUCGGGUGCCAA
Target sequence (chain): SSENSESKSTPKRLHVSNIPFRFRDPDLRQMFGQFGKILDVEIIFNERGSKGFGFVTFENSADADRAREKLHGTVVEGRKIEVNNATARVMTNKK
Sequence	RBNS enrichment (R)
GAGUCUAAUGUAAUUUUGAUCAACUUGGUAAUGAUGUUAUUAAAUAGCAAAACAAGUGCAGUGUAUUAAAGCUAAACACUACAUUGAAACGCAAACAAAAUUCUGGUGAA	0.429
AAAGACCCAACUCCGGAGGCCUACCUCCUGUGUACCCUCAGAGAGGGCAAUGUCACCCUCCUGGUAGGUAGUCCUAGACCCCUCCUGCCUCUUGCUCUCCAAUGGGGAGA	0.349
GCCAGAGGGUCCCUGCCCCGAGUGACACCCCAUCCCCUCCCAUCCCCCGGCGCGUGUGUGUAGAGCCUCAGGGCUGAGUGCCCAAUAAAGGUGGCGGCAAGGCUGCGGUG	0.343
UGAGCCAAGAUCGUGCCACUGCACUCCAGCCUGAGUGACAGAGCAAGACUCCGUCAAAAAAAAAAAAAAAAAAAAAGAAAUGAUAUCUGGCCCCCCCUUAACACUGGAGC	1
CAAGAGGAUUUCAAAUGCUAACUUUUAGUUUCUUGGGAUUGAUCAAGGCAAGAGAAGUGGCUUUAACCAUGCCAGCCAGAAUGAAGCAUCAUGGGUCCUGAUGGUUUCCC	0.588
UAAGCAUGCAUACUUUAACUUCUAUAGUUUUCUCCUUUAGAGGGUCGUCUUCAGUUUUAGAGGUUUACUUCUCCCUUGCCUUUGACUCAUUGGACUAGUGCAGAGGCUUU	5.47
CCCUCUAUUACAAGAGUCCGCCUUGCCUGAGUCCUCCCUGCUGAGUAAAGCUACCCUCCCAGGUCCAGUUUGUGUCUUGUGUUUGGGCCCCGCAAGGAGCAGUGGCGUCA	7.21
UACGUGCUUAUCACAGGUCCUUGGCGUCAGGACACUAGGGAUGAACAUGGAGGUGAUAUGUUACACAGUAAACACCUGCCAACCCCUGUACUCCCCUUUGCUCCAUCAGU	0.554
AGCCAUUUAUUGAAUUCAACUUUUUGCCAAGGAAGCUUAUCUCAAGGGAAAUGCAGUUUUUUAAUAGGCUUAUCCAGGAAAUGUUACAGUCUCUUUAACGACAGCUAUAG	0.478
CGUUUUACAAAGGAUGAUCCGACAGUGUGUCGACAUAAACUUUUACAACUGCACAGCAGCCAAAAAAGAAAAAAAAGAAAAAAAAAAACUUUAACUGGACGGACGUUGUU	0.432
GGGGACCUCGUGCCUUCUUGCUGUCAUGCAAUGACCCCGCCUUAUGUUGCCGAAAUAAGCAACUCUUAGGUUUGCCUGACUGCCUUAUGCUGGUAAAGAAAAGGGAUUCA	0.504
UUGUAACAGGCUUUUAUUUCCAGGUAAUAUGUCUUGGAAGACUUAAUUCUGAUUAGAGAUAUAGAUAUUACUGGAAACUAAUUGUUUUUUUUCUAUUGUACUCUGCUUUA	0.485

Study 3
Target: Ras GTPase-activating protein-binding protein 1, C-terminal RGG region (G3BP1, Homo sapiens, UniProt Q13283)
Sequence of UniProt Q13283 (whole entry, looked up): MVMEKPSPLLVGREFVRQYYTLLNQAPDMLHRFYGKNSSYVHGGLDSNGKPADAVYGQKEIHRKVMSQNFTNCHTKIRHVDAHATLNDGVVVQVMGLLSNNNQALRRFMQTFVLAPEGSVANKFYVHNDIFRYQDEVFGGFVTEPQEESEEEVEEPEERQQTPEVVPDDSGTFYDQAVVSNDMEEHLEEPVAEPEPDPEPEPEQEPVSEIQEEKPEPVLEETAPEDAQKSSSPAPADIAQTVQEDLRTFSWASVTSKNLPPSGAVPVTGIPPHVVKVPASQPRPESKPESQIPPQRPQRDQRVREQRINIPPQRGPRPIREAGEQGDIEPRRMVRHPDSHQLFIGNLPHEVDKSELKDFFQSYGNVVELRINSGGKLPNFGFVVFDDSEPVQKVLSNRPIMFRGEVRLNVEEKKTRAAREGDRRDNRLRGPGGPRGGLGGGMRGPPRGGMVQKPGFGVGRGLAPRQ
Method: RNA Bind-n-Seq
Form: RNA
Matrix: in vitro
Tested at: 1 µM
Notes: whole 134-nt RNA, ends assumed
Together with: 150 mM KCl
Reference: input library
Direction: higher = stronger binding
Shared flanks, not repeated: GGGAGUUCUACAGUCCGACGAUC … UGGAAUUCUCGGGUGUCAAGG
Sequence	log2 enrichment
UCCUCAAGUCCUGUGCUACACAUCGUAUGUACCGAAUCGGAGGGAGGAGGGGAAAGUAUUAUGUUACGCCGUUCGGAUCUGCACUUCCAG	-0.245
GUCCUGUGCUACACAUCGUAUGUACCGAAUCAAACCCCCCCAAACCCAAAUUUUUAAAAAAGUAUUAUGUUACGCCGUUCGGAUCUGCAC	-0.692
CUCAAGUCCUGUGCUACACAUCGUAUGUACCGAAUCGGCCCGGCCCGGGCCCGGAAAGUAUUAUGUUACGCCGUUCGGAUCUGCACUUCC	-1.6
CUGUGCUACACAUCGUAUGUACCGAAUCGGGGAAAAAAAGGAAAAAAAGGAAAAAAAGGGGAAAGUAUUAUGUUACGCCGUUCGGAUCUG	-1.57
GUCCUGUGCUACACAUCGUAUGUACCGAAUCGGGUUUGGGUUUUUUUGGGAAAAAGGGAAAGUAUUAUGUUACGCCGUUCGGAUCUGCAC	-0.084
UCCUGUGCUACACAUCGUAUGUACCGAAUCGGGGUUUGGGGAAAAAGGGGUUUUUGGGGAAAGUAUUAUGUUACGCCGUUCGGAUCUGCA	2.62
UCCUGUGCUACACAUCGUAUGUACCGAAUCGGCCCCCCGGGGCCCCCCGGCCCCCCGGGAAAGUAUUAUGUUACGCCGUUCGGAUCUGCA	-1.3
UAACUUUAGAGGAGGAUCUGAUGGAUAUGGCAGUGGACGUGGAUUUGGGUAUGGCUAUAAUGGGUAUGGAGGAGGACCUGGAGGUGGCAA	-0.702
UGGCCCUGGUGGCAUGCGGGGAGGAAGCGGUGGCCUCAUGGAUCGUGGUGGUCCCGGUGGAAUGUUCAGAGGUGGCCGUGGUGGAGACAG	1.76
UGGGAGGUGGAUUUUGUUUAUUUUGUUAGCUCAUUUCCAGGGGUGGGAAUUUUUUUUUAAUAUGUGUCAUGAAUAAAGUUGUUUUUGAAA	3.35
CAGCAGCAGAGUGAGUGGAUUUUAUUUUUCGUUAUUGUUGGUGGUUUAAAAAAUUCCCCCCAUGUAAUUAUUGUGAACACCUUGCUUUGU	-0.906
CUCAAGUCCUGUGCUACACAUCGUAUGUACCGAAUCGGGAGGGGAGGGGAGGGGAAAGUAUUAUGUUACGCCGUUCGGAUCUGCACUUCC	2.88
AGUCCUGUGCUACACAUCGUAUGUACCGAAUCGGGGAAAAGGAAAAGGGGAAAAGGGGAAAGUAUUAUGUUACGCCGUUCGGAUCUGCAC	-0.449
CAAGUCCUGUGCUACACAUCGUAUGUACCGAAUCGGAAAAAAAGGAGGUUUUUGGAAAGUAUUAUGUUACGCCGUUCGGAUCUGCACUUC	-1.64

Study 4
Target: Interferon regulatory factor 3, full length, phosphomimetic (IRF3, Homo sapiens, UniProt Q14653, residues 1-427, S386D/S396D/S398D/S402D/T404D/S405D)
Method: protein-binding microarray
Form: double-stranded DNA, one strand shown
Matrix: in vitro
Tested at: 2540 nM top
Notes: 60-bp whole probe
Together with: salmon DNA 0.4 mg/ml
Reference: random background probes
Direction: higher = stronger binding
Shared flanks, not repeated: GCCTAGCAC … GTCTTGATTCGCTTGACGCTGCTG
Target sequence (chain): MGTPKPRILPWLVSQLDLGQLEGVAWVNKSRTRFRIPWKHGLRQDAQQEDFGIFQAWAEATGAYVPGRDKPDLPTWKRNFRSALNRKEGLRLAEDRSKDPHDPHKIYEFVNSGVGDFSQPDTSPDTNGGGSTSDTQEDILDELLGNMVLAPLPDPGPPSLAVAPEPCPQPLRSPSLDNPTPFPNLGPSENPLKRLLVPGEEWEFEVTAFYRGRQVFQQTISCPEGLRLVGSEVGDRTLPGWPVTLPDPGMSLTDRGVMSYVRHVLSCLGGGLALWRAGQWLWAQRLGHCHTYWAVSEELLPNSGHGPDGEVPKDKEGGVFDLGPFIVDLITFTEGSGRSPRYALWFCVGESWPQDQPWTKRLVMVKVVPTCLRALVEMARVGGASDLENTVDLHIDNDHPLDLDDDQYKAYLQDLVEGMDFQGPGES
Sequence	fitted relative affinity
TTAGGTTTAGACTTTCGGTTAGTGCTA	1.1 z-score
CTAGGACTGGGGTTTCGGTTAGTGCTA	2.36 z-score
TTAGAACTGAGTATCGCTTAGTGCTAG	0.12 z-score
GACGGACTGCTTATCCGGACGTGCTAG	0.0686 z-score
TTAGACCTGGGGACTGGATTAGTGCTA	-0.799 z-score
AGAGTCACCCATCTCAGCAAGTGCTAG	1.5 z-score
TTAGATTTCAGTATCAATTAGTGCTAG	2.25 z-score
TTAGGACTGGGGACTGCGTTAGTGCTA	-1.13 z-score
GGCGGACTGGGTTTCGGGACGTGCTAG	0.779 z-score
TTAGGATTGCTACTGCTTTAGTGCTAG	-0.295 z-score
GACGAAATCAGTCTCGAGACGTGCTAG	0.576 z-score
TCAGCTCTGTGCATAGTACTGTGCTAG	-0.0438 z-score
AATGAGGCACTGAGAGCAGAGTGCTAG	-0.879 z-score
TTAGGTCTCGGTATTGGTTAGTGCTAG	0.747 z-score
TCAAGGCTGTGTTTTCACACTGTGCTA	-0.637 z-score
TTTTTTTTACTTCGGGTGACGTGCTAG	1.26 z-score
GACGATTTCGGGACTGAAGACGTGCTA	1.94 z-score
CACAGGCTGCACAGAATGTAGTGCTAG	-0.285 z-score
GACGATCTCGGGTATCGAGACGTGCTA	0.132 z-score
GACGGGCTCGGTTTCGGGACGTGCTAG	2.32 z-score
TTAGGTCTCCTACTGCTTTTGTGCTAG	0.673 z-score
TTAGATCTCAGTCTCGATTGGTGCTAG	0.286 z-score
GGTGCTCTGCAGCTCAGGCAGTGCTAG	-0.691 z-score
ATGCTACTGCATTTTTTTTTGTGCTAG	-0.327 z-score
GACGGTTTCGGTACTGGGGACGTGCTA	7.7 z-score

For quick reference, copied from above (study 4):
Sequence	fitted relative affinity
GACGGGCTCGGTTTCGGGACGTGCTAG	2.32 z-score
TTAGGTCTCCTACTGCTTTTGTGCTAG	0.673 z-score
TTAGATCTCAGTCTCGATTGGTGCTAG	0.286 z-score
GGTGCTCTGCAGCTCAGGCAGTGCTAG	-0.691 z-score
ATGCTACTGCATTTTTTTTTGTGCTAG	-0.327 z-score
